Results from different studies.
Every numbered part comes from another study and shows a few of its results, in no order. Changes are numbered by the printed parent chain.

Series 1 — technique: protein-binding microarray; form: double-stranded DNA, one strand shown; medium: in vitro; concentration: 940 nM top; notes: 60-bp whole probe; together with: salmon DNA 0.4 mg/ml; reference: random background probes; reading: higher = stronger binding; constant ends, left off below: GCCTAGCAC … GTCTTGATTCGCTTGACGCTGCTG
Target: Interferon regulatory factor 5, full length, phosphomimetic (IRF5, Homo sapiens, UniProt Q13568-2, residues 1-514, S451D/S453D/S456D/S462D)
Sequence | fitted relative affinity [z-score]
TCTGTTGCCCGTATCTAGGTGTGCTAG | -0.0378
GACGGTTCAGGTTTCGGGACGTGCTAG | 3.03
GACGGTTTCCTACTGTTGACGTGCTAG | 0.722
GACGGACTGCTACTACTGACGTGCTAG | -0.419
TTAGATTTCGGGTTTCGCTTAGTGCTA | 3.83
GCCGGTTTCGGGTATCGGGACGTGCTA | 10.6
GACGGACTGATTCTCCTGACGTGCTAG | -0.27
TCAACACTAATTTTCATACTGTGCTAG | 0.826
TCAATCATTGCTTTCTCACTGTGCTAG | 0.989
TCAACTCTTCTTTTGCTACTGTGCTAG | 1.38
TTAGGTTTCCTTCTCCTCTAGTGCTAG | 1.85
GACGGCTTCGGGTTTCGGGACGTGCTA | 2.1
GACGGTATCGGTCTCGGGAAGTGCTAG | 8.42
TTAGGACTGGGTTTTCGGTTAGTGCTA | 1.05

Series 2 — technique: RNA Bind-n-Seq; form: RNA; medium: in vitro; concentration: 1 µM; notes: whole 134-nt RNA, ends assumed; together with: 150 mM KCl; reference: input library; reading: higher = stronger binding
Target: Ras GTPase-activating protein-binding protein 1, C-terminal RGG region (G3BP1, Homo sapiens, UniProt Q13283)
Chain of UniProt Q13283 (whole entry, looked up): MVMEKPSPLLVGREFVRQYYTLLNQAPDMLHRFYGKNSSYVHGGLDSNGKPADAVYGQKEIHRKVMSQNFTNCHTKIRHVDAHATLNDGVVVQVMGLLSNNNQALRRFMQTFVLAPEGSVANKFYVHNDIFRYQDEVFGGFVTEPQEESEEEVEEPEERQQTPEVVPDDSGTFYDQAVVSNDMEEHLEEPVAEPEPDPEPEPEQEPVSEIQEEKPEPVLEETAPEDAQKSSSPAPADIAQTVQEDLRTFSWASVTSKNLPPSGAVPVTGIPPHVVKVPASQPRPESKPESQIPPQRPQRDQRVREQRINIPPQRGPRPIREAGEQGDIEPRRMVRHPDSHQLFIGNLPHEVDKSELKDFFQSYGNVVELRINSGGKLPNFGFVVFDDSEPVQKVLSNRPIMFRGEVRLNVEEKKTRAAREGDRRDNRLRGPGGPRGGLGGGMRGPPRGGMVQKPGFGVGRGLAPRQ
Sequence | log2 enrichment
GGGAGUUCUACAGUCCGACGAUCCUCAAGUCCUGUGCUACACAUCGUAUGUACCGAAUCGGGGUUGGUUGGGUUGGGAAAGUAUUAUGUUACGCCGUUCGGAUCUGCACUUCCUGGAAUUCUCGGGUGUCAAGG | 0.262
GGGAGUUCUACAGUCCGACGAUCCAAGUCCUGUGCUACACAUCGUAUGUACCGAAUCGGUUUGGGGUUUGGGUUUGGGGAAAGUAUUAUGUUACGCCGUUCGGAUCUGCACUUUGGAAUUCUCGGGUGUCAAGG | -0.732
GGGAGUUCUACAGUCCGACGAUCAAGUCCUGUGCUACACAUCGUAUGUACCGAAUCGGGAAAGGGAGGGUUUUUUUGGGAAAGUAUUAUGUUACGCCGUUCGGAUCUGCACUUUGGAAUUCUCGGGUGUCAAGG | 1.3
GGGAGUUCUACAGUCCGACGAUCCAAGUCCUGUGCUACACAUCGUAUGUACCGAAUCGGAAAAAGGUGGUUUUUUUGGAAAGUAUUAUGUUACGCCGUUCGGAUCUGCACUUCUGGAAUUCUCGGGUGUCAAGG | -1.86
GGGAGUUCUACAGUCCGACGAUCCCUGUGCUACACAUCGUAUGUACCGAAUCGGGGAAAAAGGGGAAAGGGGUUUUUUUGGGGAAAGUAUUAUGUUACGCCGUUCGGAUCUGCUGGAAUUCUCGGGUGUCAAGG | 1.15
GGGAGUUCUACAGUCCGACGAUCGUCCUGUGCUACACAUCGUAUGUACCGAAUCGGGAAAAAAAGGGUGGGUUUUUUUGGGAAAGUAUUAUGUUACGCCGUUCGGAUCUGCACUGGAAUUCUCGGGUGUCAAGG | 0.294
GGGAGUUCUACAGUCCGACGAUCCAAGUCCUGUGCUACACAUCGUAUGUACCGAAUCGGGUGGGAGGGUUUUUUUGGGAAAGUAUUAUGUUACGCCGUUCGGAUCUGCACUUCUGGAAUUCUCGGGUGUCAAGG | 1.07
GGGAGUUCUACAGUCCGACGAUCGUCCUGUGCUACACAUCGUAUGUACCGAAUCGGGUUUUUGGGAAAGGGUUUUUUUGGGAAAGUAUUAUGUUACGCCGUUCGGAUCUGCACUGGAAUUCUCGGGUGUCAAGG | -0.0541
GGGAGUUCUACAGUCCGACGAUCGCAGGAAGUAAAAACAAAUGAAAAUGCUUCGGAUAGUGGCAGGGGUGGGGGUUGCUAAGGAAAGGGUGGGAUGGGAGUGGGUAAAGAGUUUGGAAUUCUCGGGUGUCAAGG | 1.73
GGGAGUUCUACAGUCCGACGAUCUCAAGUCCUGUGCUACACAUCGUAUGUACCGAAUCGGAAAGGAAAGGGGAAAGGAAAGUAUUAUGUUACGCCGUUCGGAUCUGCACUUCCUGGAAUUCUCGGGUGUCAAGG | -1.49

Series 3 — target: CCNB3, cyclin fold, Cln2 fusion (human); technique: yeast growth competition, sequencing; medium: yeast; notes: weak parent motif; reference: not given; reading: higher = stronger binding
Starting sequence: WEE1 docking peptide (human); HKTFRKLRLFDTP
Substitution | normalised enrichment score
HKTFRKLFLFDTP [R8F] | -0.164
HKTFRKLRLFYTP [D11Y] | -0.355
HKTFRKLRLMDTP [F10M] | -0.0609
HKTFRKLNLFDTP [R8N] | 0.0521
HKTFRKLRLFDAP [T12A] | 0.0659
HKTFRKLRLFDMP [T12M] | 0.586
HKLFRKLRLFDTP [T3L] | -0.00806
HKTFRKLRLFDTQ [P13Q] | -0.141
HKTFRKLRLFDPP [T12P] | -0.297
HKTFRKLRLFDTF [P13F] | -0.0927
HKTFRKLRLFDTK [P13K] | 0.0214
HKHFRKLRLFDTP [T3H] | 0.691
HKTFDKLRLFDTP [R5D] | 0.562
HKTFRKLRLFDTC [P13C] | 0.376
HKTFRSLRLFDTP [K6S] | 0.0617
HKTFRKLRVFDTP [L9V] | -0.0656

Series 4 — technique: universal PBM; form: double-stranded DNA, one strand shown; medium: in vitro; concentration: 600 nM; reading: higher = stronger binding
Target: Sal-like protein 4, full length isoform A (SALL4, Homo sapiens, UniProt Q9UJQ4, residues 1-1053)
Chain of UniProt Q9UJQ4 (whole entry, looked up): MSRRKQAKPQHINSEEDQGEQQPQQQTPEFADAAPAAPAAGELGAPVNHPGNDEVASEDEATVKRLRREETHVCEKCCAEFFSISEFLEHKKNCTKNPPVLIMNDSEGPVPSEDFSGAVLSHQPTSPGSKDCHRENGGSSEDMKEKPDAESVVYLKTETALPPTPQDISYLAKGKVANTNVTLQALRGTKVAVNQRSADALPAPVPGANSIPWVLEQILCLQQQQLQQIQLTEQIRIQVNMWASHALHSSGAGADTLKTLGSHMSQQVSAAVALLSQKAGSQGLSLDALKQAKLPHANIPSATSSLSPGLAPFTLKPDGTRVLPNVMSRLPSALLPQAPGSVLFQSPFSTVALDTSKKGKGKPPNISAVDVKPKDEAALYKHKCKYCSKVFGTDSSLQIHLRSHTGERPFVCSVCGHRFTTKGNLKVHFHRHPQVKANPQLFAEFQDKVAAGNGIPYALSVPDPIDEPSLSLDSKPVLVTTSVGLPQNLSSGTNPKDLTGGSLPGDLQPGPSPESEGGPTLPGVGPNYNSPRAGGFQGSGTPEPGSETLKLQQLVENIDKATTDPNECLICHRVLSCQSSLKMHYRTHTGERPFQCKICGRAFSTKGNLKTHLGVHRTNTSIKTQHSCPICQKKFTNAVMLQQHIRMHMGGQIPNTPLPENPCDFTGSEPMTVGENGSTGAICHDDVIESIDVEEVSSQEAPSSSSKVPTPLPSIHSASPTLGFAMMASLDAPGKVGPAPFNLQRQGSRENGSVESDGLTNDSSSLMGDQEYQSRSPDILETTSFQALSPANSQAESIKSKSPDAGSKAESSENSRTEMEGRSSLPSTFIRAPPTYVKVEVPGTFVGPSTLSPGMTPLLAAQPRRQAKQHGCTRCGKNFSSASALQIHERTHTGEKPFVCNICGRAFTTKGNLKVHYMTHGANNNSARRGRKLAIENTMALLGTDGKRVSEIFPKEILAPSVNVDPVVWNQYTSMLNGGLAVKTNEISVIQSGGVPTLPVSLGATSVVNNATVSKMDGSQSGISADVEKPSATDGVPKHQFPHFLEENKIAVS
Notes: 8-mer, flanks averaged, mean of replicates
Sequence | E-score
ACACTCTG | 0.0385
GAAACCAA | -0.0112
CCCGTCGC | -0.332
CCATTGCA | 0.161
CAAATGAG | 0.0573
CTAGCATA | 0.214
AAAGAACT | 0.00541
CCGCAATC | -0.156
GACGGGGC | -0.308
AAGGTATC | -0.0694
AAATCACA | 0.0197
ATGATTGG | 0.154
CGAGGTAA | -0.0278
AGGCTTTA | 0.0574
CGTAGAAG | 0.0162
CTCAACCC | -0.246
GAAAGTTA | 0.111
AACTACCG | -0.146
GAGCCACA | -0.123
CCTTACGA | -0.0187
CGAGCGTA | 0.0413
CTGTTTTC | 0.137
CGTTCCAA | 0.0481
GCGGGCCC | -0.372
AAGTTTGC | 0.0518

Series 5 — technique: protein binding microarray; form: double-stranded DNA, one strand shown; medium: in vitro; concentration: not given; reference: not given; reading: higher = stronger binding
Target: Histone acetyltransferase KAT6A, winged helix 2, GST fusion (KAT6A, Homo sapiens, UniProt Q92794, residues 85-181)
Notes: 8-mer, flanks averaged, mean of 2 arrays, mostly near background
Residues (chain): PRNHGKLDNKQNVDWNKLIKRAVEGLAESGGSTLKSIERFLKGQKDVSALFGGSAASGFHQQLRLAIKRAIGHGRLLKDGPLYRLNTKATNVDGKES
Sequence | E-score
CTCTGGAC | 0.0369
CAGACACA | 0.0671
GTAGATAC | -0.0997
TCACAGAA | 0.00134
CGTTCCAA | -0.0345
ATAGTCAC | -0.062
CAAGCATG | 0.0499
GGGACCAA | 0.0407
AGAAAGCG | 0.034
AGCAAGAG | 0.0612
CCAACTCG | 0.0315
CAACATCC | -0.103
TCTGAGCA | 0.0129
CCAACCTC | 0.14
CTTAACTA | -0.023
AGTGCGTC | 0.0304
ACCCCAAT | -0.279
CATTGGCA | -0.0311
GGTGGTCA | -0.156
CTAGGGCA | -0.0621
